Measurements gathered from unrelated publications.
Compare with care: the assays were run in different laboratories. Values joined by “and” are separate records of one study, mostly repeats; a detail may differ. ± gives the spread as reported.

`CCCC(=O)OCSc1ccccc1C(=O)NCCn1ccc(=O)c2cc(OC(F)(F)F)ccc21` has a TC50 of 41.6 ± 6.5 µM (CEM-SS; cell viability, XTT; RPMI with 10% FBS; 6 days).
For `C1CCc2c(c(N3CCOCC3)nc3sc4c(N5CCNCC5)nnnc4c23)C1`, “percentage of drug-related material” read 48.4% (cryopreserved human hepatocytes; UHPLC-MS peak area; 1 µM, 120 min).
For `C[C@H]1O[C@@H](O[C@H]2CC[C@@]3(C)[C@@H](CC[C@]4(C)[C@@H]3C=C[C@]35OC[C@@]6(CCC(C)(C)C[C@H]63)[C@@H](O)C[C@]54C)[C@]2(C)CO)[C@H](O)[C@@H](O[C@@H]2O[C@H](CO)[C@@H](O)[C@H](O)[C@H]2O)[C@H]1O`, the viability was 13% and 38% and 15% (LO2; 15 µM, 24 h).
With `Cc1nc(N(C)C(=O)Cc2ccc(-c3ccccn3)cc2)sc1S(N)(=O)=O` the CC50 was 55.5 µM (primary human keratinocytes uninfected; live/dead staining; 20 h).
`Cn1cc(-c2ccc(-c3cncc(Cl)c3N3CCC4(CCNC4=O)CC3)cc2)cn1` — result for “fold change in expression”: -1.55 (COLO 205; microarray, refers to: DBI; concentration not given, 6 h; baseline: untreated cells).
With `CCCC(=O)OCSc1ccccc1C(=O)NCCOc1ccnc2ccc(C)cc12` the TC50 was 54.3 ± 2.5 µM (CEM-SS; cell viability, XTT; RPMI with 10% FBS; 6 days).
With `COc1ccc2[nH]c([S+]([O-])Cc3ncc(C)c(OC)c3C)nc2c1` (stereo not drawn) the mRNA level was 13.8 to 105 fold (human hepatocytes; refers to: CYP1A2; concentration not given, 3 days; baseline: negative control).
`CCC[C@H](CC)Oc1ccc(C(=O)NCCOCCOCCOCC(=O)N[C@H](C(=O)N2C[C@H](O)C[C@H]2C(=O)NCc2ccc(-c3scnc3C)cc2)C(C)(C)C)cc1NC(=O)c1nnn(-c2cc(OC)ccc2OC)c1C` has a CC50 of > 30 µM (SNU-C4 HiBiT-PXR knock-in; CellTiter-Glo; 72 h, 10% FBS).
With `C#Cc1c(F)ccc2cc(O)cc(-c3ncc4c(N5CC6CCC(C5)N6)nc(OC[C@@]56CCCN5C[C@H](F)C6)nc4c3F)c12` the efflux ratio was > 22.8 (Caco-2; no inhibitor, P-gp (verapamil) set).
With `CCCC(=O)OCSc1ccccc1C(=O)NCCn1cc(C(=O)NCc2ccccc2)c(=O)c2cc3c(cc21)OCO3` the TC50 was > 100 µM (CEM-SS; cell viability, XTT; RPMI with 10% FBS; 6 days).
With `O=C(O)/C=C/c1ccccc1` the IC50 was > 200 µM (HaCaT; cytotoxicity, MTT; 48 h, 10% FBS).
`CCCC(=O)OCSc1ccccc1C(=O)NCCn1ccc(=O)c2cc(Cl)ccc21` has a TC50 of 24.6 ± 7.1 µM (CEM-SS; cell viability, XTT; RPMI with 10% FBS; 6 days).
For `CC(C)n1ncc2c(C(=O)NCC3(C)CNC3)cc(C3CC3)nc21`, the viability was 102% (HeLa; neutral red uptake; 0.33 µM, 2% FBS; baseline: positive control).
`O=P1(C2CCCCC2)CCCCC1` gave a viability of 92.3% (HaCaT; trypan blue; IC50, 72 h).
`CC1(C)C2CCC1(CS(=O)(=O)[O-])C(=O)C2.[Na+]` (racemic): cytotoxicity “not toxic” (HCE; MTT; up to 50 µM).
The cytotoxicity of `Cc1cc(C(=O)NC(C)(C)COc2cccc3c2C(N)=NS(=O)(=O)N3)cc(C)n1` is reported as 2% (human peripheral blood lymphocytes; CBPI, preliminary test; 200 µg/mL, 4 h; baseline: vehicle control).
`C=CC(=O)N(C)CCOc1c(N)ncnc1-c1cc(F)cc(NC(=O)c2ccc(C3CC3)cc2F)c1C`: “maximum fold induction” 5.45 (human hepatocytes; refers to: CYP2B6 mRNA; baseline: vehicle).
The TC50 of `CCCC(=O)OCSc1ccccc1C(=O)NCCn1cc(C(=O)N2CCN(C)CC2)c(=O)c2cc3c(cc21)OCO3` is reported as > 100 µM (CEM-SS; cell viability, XTT; RPMI with 10% FBS; 6 days).
Under “maximum non-toxic concentration”, `Cc1ccc(-c2nc(NS(=O)(=O)c3ccc(C)cc3)nc(N)c2-c2nc3ccccc3s2)cc1` is recorded as 100 µg/mL (Vero; cytotoxicity; 72 h).
The CC50 of `CNC(=O)c1cc(Oc2ccc(NC(=O)Nc3ccc(Cl)c(C(F)(F)F)c3)cc2)ccn1` is reported as 9.52 µM (HeLa; MTT; 24 h).
The IC50 of `O=C(O)c1ccc(O)cc1` is reported as > 200 µM (HaCaT; cytotoxicity, MTT; 48 h, 10% FBS).
`COc1cc(/C=C/C=C2\SC(=S)NC2=O)cc(OC)c1O` gave a viability of 0.911 and 0.845 (HeLa; CellTiter-Glo; 20 µM, 24 h, unit not given; baseline: untreated).
Under “binucleated cells with micronuclei”, `COc1cccc(-c2n[nH]c(SCc3ccccn3)n2)c1OC` is recorded as 1.9% (CHO-WBL; 63 µg/mL, 19 h, without S9).
`CC[C@H](C)C(=O)N1CCC(NC(=O)Nc2ccc(OC(F)(F)F)c(F)c2)CC1` gave a percent recovery of 43% (Caco-2; Caco-2 permeability; 10 µM, 60 min, pH 7.4 apical, 7.4 basolateral, mean, together with: verapamil; apical to basolateral).
`Nc1ccccc1C(=O)C[C@H](N)C(=O)O` — result for “log2 fold change”: -0.136 (binding, MIDAS equilibrium dialysis LC-MS; A2AR-BRIL thermostabilized; concentration not given; baseline: no-protein control).
With `CCCC(=O)OCSc1ccccc1C(=O)NCCn1cc(C(=O)NCc2cccc(C)n2)c(=O)c2cc3c(cc21)OC(F)(F)O3` the TC50 was > 100 µM (human PBMCs, PHA-P-stimulated; XTT; 7 days).
For `C[C@H](O)c1cnc(NS(=O)(=O)c2ccc(Cl)c(Cl)c2)nc1`, “metabolism inhibited by ABT and TA” read 7% (cryopreserved human hepatocytes; pan-CYP inhibition; 1 µM, together with: 1 mM 1-aminobenzotriazole and 15 µM tienilic acid).
For `Cc1cccc(C)c1N(CC(=O)Nc1ccc(-c2ncon2)cc1)C(=O)C1CCS(=O)(=O)CC1`, the CC50 was > 60 µM (primary human keratinocytes uninfected; live/dead staining; 20 h).
`Cc1ccc(CNC(=O)Cn2cc(CSc3nc4ccccc4[nH]3)nn2)cc1` has a viability of 17.2% (HEK293; MTT; 31.3 ppm).
The viability fraction of `COc1cc2ncnc(Nc3ccc(Oc4ccccc4)cc3C)c2cc1OC.O=C(O)C(F)(F)F` is reported as 0.972 (MeWo (NF1); resazurin; 0.3 µM, 72 h, together with: trametinib 0 nM).
For `CCCC(=O)OCSc1ccccc1C(=O)NCCC(=O)N1CCN(C(=O)Cn2ccc(=O)c3cc4c(cc32)OCO4)CC1`, the TC50 was > 100 µM (CEM-SS; cell viability, XTT; RPMI with 10% FBS; 6 days).
`CN(C(=O)C(C)(C)c1cc(C(F)(F)F)cc(C(F)(F)F)c1)c1cnc(N2C[C@H]3COCCN3C[C@H]2CO)cc1-c1ccc(F)cc1[14CH3]` gave a turnover of 12.4% (cryopreserved human hepatocytes; 5 µM, 1 h, together with: 5 µM cobicistat).
`CC(=O)ON=C1C=CC(=C(C#N)c2ccccc2)C=C1` — result for “IC50 relative to MIC”: > 12 multiple of MIC (HDF-1 human skin fibroblasts; MTT; 72 h, serum-free DMEM; baseline: Candida albicans MIC).
`O=C(Nc1c2c(cc3c1CCC3)CCC2)NS(=O)(=O)/C=C/c1nccs1`: “Papp A to B” 94.6 ± 3.61 nm/s (Caco-2; 2 µM, 120 min, pH 7.4).
For `Cc1cn([C@H]2C[C@H](N=[N+]=[N-])[C@@H](CO)O2)c(=O)[nH]c1=O`, the TC50 was > 0.5 µM (CEM-SS; XTT; 6 days).
`OCCN1CCN(CCCN2c3ccccc3Sc3ccc(Cl)cc32)CC1` — result for cytotoxicity: “not toxic” (differentiated SH-SY5Y; 10 µM, 24 h, compound alone; baseline: vehicle).
`COc1c(NC(=O)C(=O)c2ccc(OCCN3CCOCC3)c3ccccc23)cc(C(C)(C)C)cc1NS(C)(=O)=O` gave a CC50 of > 35 µM (ldlA[mSR-BI] CHO; 24 h).
For `Cc1ncc(C[n+]2csc(CCOP(=O)(O)O)c2C)c(N)n1`, “log2 fold change” read -0.0397 (binding, MIDAS equilibrium dialysis LC-MS; A2AR-BRIL thermostabilized; concentration not given; baseline: no-protein control).
Under “liver to blood partition coefficient”, `N[C@@H]1c2cccnc2[C@H](OC(=O)N2CCC(n3c(=O)[nH]c4ncccc43)CC2)CC[C@H]1c1cccc(F)c1F` is recorded as 6.1 (cryopreserved human hepatocytes).
